Published values gathered from unrelated publications.
Compare with care: the assays were run in different laboratories.
Target: Sodium-dependent noradrenaline transporter (SLC6A2, Homo sapiens, UniProt P23975)
Chain of UniProt P23975 (whole entry, looked up): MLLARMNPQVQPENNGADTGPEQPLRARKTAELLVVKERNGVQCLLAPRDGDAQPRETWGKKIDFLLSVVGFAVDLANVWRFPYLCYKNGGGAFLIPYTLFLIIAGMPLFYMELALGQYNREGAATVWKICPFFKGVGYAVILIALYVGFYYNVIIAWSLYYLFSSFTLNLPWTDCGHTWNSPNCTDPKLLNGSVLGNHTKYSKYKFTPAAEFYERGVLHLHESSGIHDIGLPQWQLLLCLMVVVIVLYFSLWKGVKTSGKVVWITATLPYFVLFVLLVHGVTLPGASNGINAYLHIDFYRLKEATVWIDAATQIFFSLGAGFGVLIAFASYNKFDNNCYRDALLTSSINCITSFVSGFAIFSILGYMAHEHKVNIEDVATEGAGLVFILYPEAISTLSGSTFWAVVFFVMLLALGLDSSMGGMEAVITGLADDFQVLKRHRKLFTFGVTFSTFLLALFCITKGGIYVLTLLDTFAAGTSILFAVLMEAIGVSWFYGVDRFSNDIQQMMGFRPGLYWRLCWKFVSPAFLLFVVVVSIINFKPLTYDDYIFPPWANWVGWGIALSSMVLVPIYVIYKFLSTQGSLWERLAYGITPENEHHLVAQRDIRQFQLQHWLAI

COc1ccc(C#CC2=C[C@H]3C[C@@]4(OC(=O)C=C24)[C@H]2CC[C@H](C(OC)OC)N32)cc1
inhibition (ligand displacement, radioligand; 10 µM): 8%

COc1ccc(S(=O)(=O)N2CCc3ccccc3C2)cc1N1CCN(C(=O)c2ccc(F)cc2C(F)(F)F)CC1
inhibition (ligand displacement, radioligand; 1 µM): 15.2%

Cc1[nH]nc2c1N=C(c1ccccc1Cl)c1cnc(N3CCOCC3)cc1N2
inhibition (cell-free assay; 10 µM): 32%

CCC(=O)N(C)c1ccc(Cl)c(Cl)c1
inhibition (binding, radioligand binding; 10 µM): < 10%

CCOC(=O)C12CC1C(n1cnc3c(NC)nc(C#Cc4ccc(F)s4)nc31)C(O)C2O (stereo not drawn)
inhibition (ligand displacement, radioligand; 10 µM): 17%

Cn1ccc2cc(-n3c(=O)[nH]c4sc5c(c4c3=O)CCCC5)ccc21
inhibition (transporter uptake, inhibitor; 10 µM): 23%

CO[C@@H](C)c1c(NC(=O)Nc2cnc(-n3nccn3)c(C(F)(F)F)c2)cnc2sc(C)nc12
inhibition (ligand displacement, radioligand; 10 µM): 4.2%

C[Si]1(C[C@H](CN)CC(=O)O)CCCC1
inhibition (ligand displacement, radioligand; 70 µM): -12%

COc1ccc(C(=O)Nc2c(-c3cccs3)nc3ccccn23)cc1
inhibition (ligand displacement, radioligand; 10 µM): < 50%

C[Si](C)(C)C[C@H](CN)CC(=O)O
inhibition (ligand displacement, radioligand; 250 µM): -10%

O=C(O)COc1cccc(NC(=O)c2cc(-c3cccc(F)c3)ccc2F)c1
inhibition (ligand displacement, radioligand; 10 µM): 5%

CC(C)Cn1c(SCC(=O)N2CCc3ccccc3C2)nc2cc(Cl)ccc2c1=O
inhibition (ligand displacement, radioligand; 10 µM): 12%

O=C1c2sc(-c3ccc(N4CCC(CO)CC4)nc3F)nc2CCN1c1cccnc1
inhibition (ligand displacement, radioligand; 1 µM): -16%

CNC(=O)C12CC1C(n1cnc3c(NC)nc(C#Cc4ccccc4Cl)nc31)C(O)C2O (stereo not drawn)
inhibition (ligand displacement, radioligand; 10 µM): -98%

COCC(=O)N1CCc2cc(-c3csc(NC(=O)c4cc(OC)cc(OC)c4)n3)ccc21
inhibition (10 µM): 4%
